Measurements collected from several papers.
Each numbered part is a random draw from the data of one study; scales do not carry over between parts.

Series 1 — technique: protein-binding microarray; molecule type: double-stranded DNA, one strand shown; sample: in vitro; tested at: not given; direction: higher = stronger binding
Target: Max dimerization protein 1, bHLH-zipper, MAX partner unstated (MXD1, Homo sapiens, UniProt Q05195, residues 56-136)
Notes: k-mer, scored over probes, only values ≥0.25
Construct (chain): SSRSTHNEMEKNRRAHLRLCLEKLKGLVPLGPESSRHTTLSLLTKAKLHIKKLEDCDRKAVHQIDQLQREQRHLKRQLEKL
| Sequence | E-score |
| --- | --- |
| GCTTAACA | 0.3 |
| AGAGCGTG | 0.334 |
| CATGCGAC | 0.371 |
| CCTCCCCG | 0.319 |

Series 2 — technique: universal PBM; molecule type: double-stranded DNA, one strand shown; sample: in vitro; tested at: 600 nM; direction: higher = stronger binding
Target: Sal-like protein 4, full length isoform A (SALL4, Homo sapiens, UniProt Q9UJQ4, residues 1-1053)
Chain of UniProt Q9UJQ4 (whole entry, looked up): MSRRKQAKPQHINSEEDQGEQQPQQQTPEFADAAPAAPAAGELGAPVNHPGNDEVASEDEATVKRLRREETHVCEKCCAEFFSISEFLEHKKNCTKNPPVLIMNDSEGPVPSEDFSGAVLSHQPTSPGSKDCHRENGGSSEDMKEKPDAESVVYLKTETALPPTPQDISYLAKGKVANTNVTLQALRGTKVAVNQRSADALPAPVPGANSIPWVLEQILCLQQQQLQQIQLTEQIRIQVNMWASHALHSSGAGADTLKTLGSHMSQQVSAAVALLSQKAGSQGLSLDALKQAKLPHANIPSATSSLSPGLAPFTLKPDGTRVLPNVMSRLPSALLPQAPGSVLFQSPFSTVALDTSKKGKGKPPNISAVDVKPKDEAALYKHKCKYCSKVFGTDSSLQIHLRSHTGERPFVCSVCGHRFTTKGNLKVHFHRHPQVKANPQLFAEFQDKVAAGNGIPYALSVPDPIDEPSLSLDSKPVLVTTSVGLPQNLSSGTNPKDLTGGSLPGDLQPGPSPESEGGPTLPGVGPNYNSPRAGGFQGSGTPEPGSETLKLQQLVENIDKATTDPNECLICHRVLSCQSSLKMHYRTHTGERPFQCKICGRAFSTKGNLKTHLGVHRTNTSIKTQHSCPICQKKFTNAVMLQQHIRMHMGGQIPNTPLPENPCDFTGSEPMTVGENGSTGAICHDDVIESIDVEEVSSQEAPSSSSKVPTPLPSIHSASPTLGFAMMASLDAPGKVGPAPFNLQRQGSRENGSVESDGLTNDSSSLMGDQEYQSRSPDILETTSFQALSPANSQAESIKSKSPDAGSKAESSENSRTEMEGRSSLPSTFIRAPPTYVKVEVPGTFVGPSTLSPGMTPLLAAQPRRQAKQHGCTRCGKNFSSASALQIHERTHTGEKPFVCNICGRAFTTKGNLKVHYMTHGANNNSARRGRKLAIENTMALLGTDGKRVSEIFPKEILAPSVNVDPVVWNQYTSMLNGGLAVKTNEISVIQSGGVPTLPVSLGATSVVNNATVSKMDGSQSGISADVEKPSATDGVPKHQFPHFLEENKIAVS
Notes: 8-mer, flanks averaged, mean of replicates
| Sequence | E-score |
| --- | --- |
| GAATCTAC | 0.0605 |
| CTCTGATA | 0.175 |
| GACTATCC | -0.239 |
| CGCATAAG | 0.13 |
| CCAACAAC | -0.189 |
| CCTACTTA | 0.115 |

Series 3 — technique: protein binding microarray; molecule type: double-stranded DNA, one strand shown; sample: in vitro; tested at: not given; baseline: not given; direction: higher = stronger binding
Target: Histone acetyltransferase KAT6A, winged helix 2, GST fusion (KAT6A, Homo sapiens, UniProt Q92794, residues 85-181)
Notes: 8-mer, flanks averaged, mean of 2 arrays, mostly near background
Target sequence (chain): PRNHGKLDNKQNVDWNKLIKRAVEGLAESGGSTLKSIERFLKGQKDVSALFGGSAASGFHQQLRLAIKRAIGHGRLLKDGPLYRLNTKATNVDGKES
| Sequence | E-score |
| --- | --- |
| CAATGCCG | 0.0638 |
| CACTCCCG | 0.097 |
| CACAACGA | 0.193 |
| AAAAATAT | 0.0455 |

Other studies, line by line
| Substance | target | test | system | setting | how to read | measurement | result |
| --- | --- | --- | --- | --- | --- | --- | --- |
| PhoQ, residues 284 288 289 292 302 303 SNSSNI | PhoP, residues 12 14 15 18 19 SMASL (Escherichia coli, UniProt P23836) | Sort-seq, refers to: YFP reporter | E. coli | PhoQ-PhoP variant library, with: 10 µM Mg2+ | baseline: high Mg2+ state, higher = stronger signaling | fold induction | 4.76 |

A few entries again (series 3):
| Sequence | E-score |
| --- | --- |
| AAAAATAT | 0.0455 |
